Published values collected from several papers.
Each line is one published result; not all experiments were run side by side.

`Cc1c(C(=O)O)ccc2c3n(nc12)[C@@H]1[C@H](C3)N(CC2CC2)[C@@]2(C(=O)Nc3cc(Cl)ccc32)[C@H]1c1cccc(Cl)c1F` — result for “adverse event incidence”: 87% (phase Ia trial, measured: Nausea; cancer patients; oral, dose not given, all patients all grades).
For `O=C1CCc2ccc(OCCCCN3CCN(c4cccc(Cl)c4Cl)CC3)cc2N1`, “adverse event incidence” read 8.6% (measured: Tremor; genotyped patients, CYP2D6 intermediate metabolizers; dose not given, long-acting oral or depot).
For `Cc1ccc(Sc2ccccc2N2CCNCC2)c(C)c1`, “adverse event incidence” read 0% (TEAE blood in urine; healthy adult men; oral, 5 mg single dose, 10 days).
`CC(C)n1c(Nc2cccnc2)nc2cnc(Nc3ccc(N4CCN(C)CC4)cc3)nc21`: “adverse event incidence” 14.3% (measured: Hyperuricemia; healthy male subjects; oral, 100 mg, added: itraconazole).
`NCCONC(=O)[C@@H]1CC[C@@H]2CN1C(=O)N2OS(=O)(=O)O`: “adverse event incidence” 0% (measured: urinary occult blood positive; healthy Chinese men; intravenous, 1 g, treatment-emergent).
Under “adverse event incidence”, `FC(F)(F)c1ccc(CNc2ccc(Cc3c[nH]c4ncc(Cl)cc34)cn2)cn1` is recorded as 26% (measured: Vomiting; patients with advanced solid tumours; oral, dose not given, all grades, possibly related to drug).
`CNC(=O)c1ccc(-c2cnc3ncc(Cc4ccc5ncccc5c4)n3n2)cc1F` — result for “adverse event incidence”: 0% (phase 1 clinical trial, measured: blood bilirubin increased; other expansion cohort; oral, 600 mg twice daily, grade 3 or 4).
Under “adverse event incidence”, `CC(=O)O[C@H]1C(=O)[C@@]2(C)[C@H]([C@H](OC(=O)c3ccccc3)[C@]3(O)C[C@H](OC(=O)[C@H](O)[C@@H](NC(=O)c4ccccc4)c4ccccc4)C(C)=C1C3(C)C)[C@]1(OC(C)=O)CO[C@@H]1C[C@@H]2O` is recorded as 0% (measured: Alopecia; patients with advanced solid tumours; intravenous, dose not given, grade 3 and 4, possibly related to drug).
`Cc1c(Cl)c(C)[n+]([O-])c(Cl)c1-c1noc(-c2cc(O)c(O)c([N+](=O)[O-])c2)n1` — result for “adverse event incidence”: 0% (measured: Moderate severity; healthy Chinese subjects; oral, 100 mg).

For quick reference, copied from above:
`CNC(=O)c1ccc(-c2cnc3ncc(Cc4ccc5ncccc5c4)n3n2)cc1F` — result for “adverse event incidence”: 0% (phase 1 clinical trial, measured: blood bilirubin increased; other expansion cohort; oral, 600 mg twice daily, grade 3 or 4).
